{"data": "Published values collected from several papers", "note": "Every numbered part comes from another study and shows a few of its results, in no order.", "chain of UniProt Q9Y5S2 (whole entry, looked up)": "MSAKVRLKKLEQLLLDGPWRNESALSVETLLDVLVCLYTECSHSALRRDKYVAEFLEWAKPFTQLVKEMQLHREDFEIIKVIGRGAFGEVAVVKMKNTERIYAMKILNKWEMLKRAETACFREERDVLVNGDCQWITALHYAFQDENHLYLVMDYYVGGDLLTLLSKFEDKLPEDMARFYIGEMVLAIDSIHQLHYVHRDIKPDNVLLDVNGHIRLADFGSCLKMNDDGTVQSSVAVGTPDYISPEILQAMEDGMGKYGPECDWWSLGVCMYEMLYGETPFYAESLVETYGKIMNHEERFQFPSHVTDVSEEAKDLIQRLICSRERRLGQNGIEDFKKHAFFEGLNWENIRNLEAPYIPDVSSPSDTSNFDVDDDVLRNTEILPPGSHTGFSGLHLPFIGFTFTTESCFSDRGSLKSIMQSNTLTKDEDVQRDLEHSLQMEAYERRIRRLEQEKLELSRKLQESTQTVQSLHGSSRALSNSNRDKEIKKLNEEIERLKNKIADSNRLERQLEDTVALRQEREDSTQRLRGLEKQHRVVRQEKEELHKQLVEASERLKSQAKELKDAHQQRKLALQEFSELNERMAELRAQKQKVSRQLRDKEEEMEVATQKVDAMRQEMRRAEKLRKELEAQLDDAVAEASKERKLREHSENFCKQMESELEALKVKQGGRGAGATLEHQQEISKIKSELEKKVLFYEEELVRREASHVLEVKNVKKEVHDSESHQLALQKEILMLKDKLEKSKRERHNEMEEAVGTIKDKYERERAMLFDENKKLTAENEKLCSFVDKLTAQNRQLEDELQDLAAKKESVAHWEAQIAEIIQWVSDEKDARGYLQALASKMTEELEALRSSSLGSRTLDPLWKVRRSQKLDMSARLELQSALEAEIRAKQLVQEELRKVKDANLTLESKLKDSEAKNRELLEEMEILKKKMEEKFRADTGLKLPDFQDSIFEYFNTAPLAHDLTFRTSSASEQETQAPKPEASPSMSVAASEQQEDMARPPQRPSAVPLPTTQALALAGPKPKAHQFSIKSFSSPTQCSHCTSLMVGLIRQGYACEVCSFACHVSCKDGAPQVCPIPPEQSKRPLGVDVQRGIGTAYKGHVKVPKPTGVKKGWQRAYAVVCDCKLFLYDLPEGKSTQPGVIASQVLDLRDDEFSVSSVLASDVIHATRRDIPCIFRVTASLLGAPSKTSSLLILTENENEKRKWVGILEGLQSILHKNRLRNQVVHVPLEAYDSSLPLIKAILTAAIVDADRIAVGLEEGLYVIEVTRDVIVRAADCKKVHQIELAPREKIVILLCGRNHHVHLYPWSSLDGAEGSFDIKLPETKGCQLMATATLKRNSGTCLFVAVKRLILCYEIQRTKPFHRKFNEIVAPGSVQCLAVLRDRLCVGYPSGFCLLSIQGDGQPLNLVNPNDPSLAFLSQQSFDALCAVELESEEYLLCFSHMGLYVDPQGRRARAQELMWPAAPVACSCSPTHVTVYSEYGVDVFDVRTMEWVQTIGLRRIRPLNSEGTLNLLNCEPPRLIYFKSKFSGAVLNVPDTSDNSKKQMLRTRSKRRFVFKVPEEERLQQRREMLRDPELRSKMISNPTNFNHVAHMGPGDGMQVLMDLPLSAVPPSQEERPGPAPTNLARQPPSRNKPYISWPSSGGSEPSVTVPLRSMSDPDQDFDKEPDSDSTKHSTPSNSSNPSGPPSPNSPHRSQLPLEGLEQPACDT", "chain of UniProt Q9HAZ1 (whole entry, looked up)": "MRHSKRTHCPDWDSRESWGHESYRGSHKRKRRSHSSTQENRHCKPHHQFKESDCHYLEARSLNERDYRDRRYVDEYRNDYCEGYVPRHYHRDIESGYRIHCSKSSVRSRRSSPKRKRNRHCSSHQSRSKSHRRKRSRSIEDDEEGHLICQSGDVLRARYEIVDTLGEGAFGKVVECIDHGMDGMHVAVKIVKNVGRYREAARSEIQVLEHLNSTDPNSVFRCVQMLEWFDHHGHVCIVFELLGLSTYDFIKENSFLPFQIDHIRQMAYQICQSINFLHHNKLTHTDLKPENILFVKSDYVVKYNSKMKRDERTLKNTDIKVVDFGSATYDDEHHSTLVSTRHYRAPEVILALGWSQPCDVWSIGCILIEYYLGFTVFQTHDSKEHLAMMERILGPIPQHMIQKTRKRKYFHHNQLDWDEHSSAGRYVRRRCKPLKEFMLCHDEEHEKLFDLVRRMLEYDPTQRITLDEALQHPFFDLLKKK", "chain of UniProt P53671 (whole entry, looked up)": "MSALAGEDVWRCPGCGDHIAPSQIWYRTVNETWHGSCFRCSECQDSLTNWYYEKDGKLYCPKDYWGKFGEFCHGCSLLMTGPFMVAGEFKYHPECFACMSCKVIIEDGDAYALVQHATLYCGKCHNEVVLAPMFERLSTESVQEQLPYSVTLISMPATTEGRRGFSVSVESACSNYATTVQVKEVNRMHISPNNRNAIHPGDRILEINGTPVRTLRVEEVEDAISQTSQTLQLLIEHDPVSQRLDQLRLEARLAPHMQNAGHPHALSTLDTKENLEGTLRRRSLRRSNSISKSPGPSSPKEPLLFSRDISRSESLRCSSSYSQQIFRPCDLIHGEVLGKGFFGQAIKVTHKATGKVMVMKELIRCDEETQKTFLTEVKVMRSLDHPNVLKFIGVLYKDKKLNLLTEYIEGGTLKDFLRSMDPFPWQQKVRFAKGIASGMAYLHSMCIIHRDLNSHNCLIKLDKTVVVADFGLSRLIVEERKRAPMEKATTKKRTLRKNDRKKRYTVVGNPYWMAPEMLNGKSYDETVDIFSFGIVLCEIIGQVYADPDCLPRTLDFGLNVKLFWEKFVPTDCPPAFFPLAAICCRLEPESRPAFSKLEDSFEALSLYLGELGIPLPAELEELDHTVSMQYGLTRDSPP", "chain of UniProt P49761 (whole entry, looked up)": "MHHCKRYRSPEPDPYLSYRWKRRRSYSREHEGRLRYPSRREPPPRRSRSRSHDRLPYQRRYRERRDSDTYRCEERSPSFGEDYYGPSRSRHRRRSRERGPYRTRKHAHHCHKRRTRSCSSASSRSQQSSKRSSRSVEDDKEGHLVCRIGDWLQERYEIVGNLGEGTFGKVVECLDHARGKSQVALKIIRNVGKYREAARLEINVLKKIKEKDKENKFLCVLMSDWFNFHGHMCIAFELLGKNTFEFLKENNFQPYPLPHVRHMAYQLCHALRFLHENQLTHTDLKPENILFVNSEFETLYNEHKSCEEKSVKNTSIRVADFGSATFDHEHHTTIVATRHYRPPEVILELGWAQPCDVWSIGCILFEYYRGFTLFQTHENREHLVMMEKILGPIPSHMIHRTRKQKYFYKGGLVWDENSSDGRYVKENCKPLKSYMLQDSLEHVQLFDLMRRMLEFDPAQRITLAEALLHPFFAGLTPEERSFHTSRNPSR", "chain of UniProt P31751 (whole entry, looked up)": "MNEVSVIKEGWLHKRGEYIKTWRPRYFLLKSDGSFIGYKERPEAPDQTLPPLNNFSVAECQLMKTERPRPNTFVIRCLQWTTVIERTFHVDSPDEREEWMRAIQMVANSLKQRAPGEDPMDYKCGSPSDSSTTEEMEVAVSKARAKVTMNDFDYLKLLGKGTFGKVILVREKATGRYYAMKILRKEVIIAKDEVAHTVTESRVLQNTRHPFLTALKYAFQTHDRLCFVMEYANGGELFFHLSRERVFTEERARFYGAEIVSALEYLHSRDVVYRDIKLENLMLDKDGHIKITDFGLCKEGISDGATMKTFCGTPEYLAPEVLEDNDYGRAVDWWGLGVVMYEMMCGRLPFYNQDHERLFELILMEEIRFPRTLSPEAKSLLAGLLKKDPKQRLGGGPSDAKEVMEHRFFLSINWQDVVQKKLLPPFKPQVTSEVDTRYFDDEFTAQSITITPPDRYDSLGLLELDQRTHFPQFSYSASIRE"}
{"data": "Set 1", "SMILES": "Nc1c(C(=O)NCc2ccc(C(=O)NCCCC3CCCCC3)cc2)cnn1-c1ccccc1", "read-out": "cell-free assay", "technique": "competition with immobilised ligand", "tested at": "0.1 µM"}
{"target": "Receptor-interacting serine/threonine-protein kinase 2 (RIPK2, Homo sapiens, UniProt O43353)", "remaining binding [%]": 96}
{"target": "LIM domain kinase 2 (LIMK2, Homo sapiens, UniProt P53671)", "remaining binding [%]": 100}
{"target": "Cyclin-dependent kinase 13 (CDK13, Homo sapiens, UniProt Q14004)", "remaining binding [%]": 79}
{"target": "Activin receptor type-2A (ACVR2A, Homo sapiens, UniProt P27037)", "remaining binding [%]": 100}
{"target": "Proto-oncogene tyrosine-protein kinase receptor Ret (RET, Homo sapiens, UniProt P07949, V804L)", "remaining binding [%]": 100}
{"target": "Casein kinase I isoform gamma-2 (CSNK1G2, Homo sapiens, UniProt P78368)", "remaining binding [%]": 94}
{"target": "Ephrin type-A receptor 3 (EPHA3, Homo sapiens, UniProt P29320)", "remaining binding [%]": 100}
{"target": "Serine/threonine-protein kinase pim-3 (PIM3, Homo sapiens, UniProt Q86V86)", "remaining binding [%]": 91}
{"target": "Tyrosine-protein kinase Lck (LCK, Homo sapiens, UniProt P06239)", "remaining binding [%]": 82}
{"data": "Set 2", "target": "Transcriptional repressor CTCF (CTCF, Homo sapiens, UniProt P49711, residues 1-727, full length assumed)", "technique": "protein-binding microarray", "form": "double-stranded DNA, one strand shown", "matrix": "in vitro", "tested at": "not given", "setting": "k-mer, scored over probes, only values ≥0.25", "reading": "higher = stronger binding", "chain of UniProt P49711 (whole entry, looked up)": "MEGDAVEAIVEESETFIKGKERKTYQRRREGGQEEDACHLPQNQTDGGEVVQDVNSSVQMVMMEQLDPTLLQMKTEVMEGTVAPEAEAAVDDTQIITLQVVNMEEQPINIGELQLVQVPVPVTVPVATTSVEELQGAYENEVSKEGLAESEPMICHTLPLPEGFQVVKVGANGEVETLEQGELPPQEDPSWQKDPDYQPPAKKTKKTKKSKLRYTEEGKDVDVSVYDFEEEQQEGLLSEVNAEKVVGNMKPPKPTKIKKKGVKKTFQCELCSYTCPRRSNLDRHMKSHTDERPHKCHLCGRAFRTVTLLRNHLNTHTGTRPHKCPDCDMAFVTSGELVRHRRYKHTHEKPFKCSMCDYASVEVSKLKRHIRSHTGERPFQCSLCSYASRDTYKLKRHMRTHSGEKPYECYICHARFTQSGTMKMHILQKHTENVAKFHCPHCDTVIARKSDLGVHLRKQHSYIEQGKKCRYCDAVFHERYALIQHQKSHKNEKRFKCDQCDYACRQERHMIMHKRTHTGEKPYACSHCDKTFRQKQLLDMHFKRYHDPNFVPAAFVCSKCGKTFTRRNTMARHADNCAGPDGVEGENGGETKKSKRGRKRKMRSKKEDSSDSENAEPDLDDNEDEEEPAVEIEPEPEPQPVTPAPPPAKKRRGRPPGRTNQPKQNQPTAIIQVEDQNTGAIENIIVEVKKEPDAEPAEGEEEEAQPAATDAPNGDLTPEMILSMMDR"}
{"Oligonucleotide": "ATTATCTC", "E-score": 0.277}
{"Oligonucleotide": "GCGCCTAC", "E-score": 0.285}
{"Oligonucleotide": "GATAACAC", "E-score": 0.278}
{"Oligonucleotide": "CACCGGAA", "E-score": 0.296}
{"Oligonucleotide": "ACAAATTC", "E-score": 0.273}
{"Oligonucleotide": "CAAGCGCA", "E-score": 0.287}
{"Oligonucleotide": "ACTATTAT", "E-score": 0.293}
{"Oligonucleotide": "GCGATATA", "E-score": 0.295}
{"data": "Set 3", "target": "Prothrombin, mature alpha-thrombin (F2, Homo sapiens, UniProt P00734)", "technique": "aptamer microarray, sandwich", "form": "DNA with 2'F-ANA", "matrix": "in vitro", "tested at": "200 nM", "setting": "whole 15-mer aptamer, many near background", "with": "Cy3 exosite-II aptamer, 400 nM", "reading": "higher = stronger binding", "oligonucleotide": "GGTTGGTGTGGTTGG"}
{"Modification": "2'F-ANA at 1 5 8 9 11 12", "mean fluorescence intensity": "97.6 a.u."}
{"Modification": "2'F-ANA at 1 2 3 5 6 8 9 10 11 14 15", "mean fluorescence intensity": "90.4 a.u."}
{"Modification": "2'F-ANA at 1 2 3 5 6 8 11 12 13", "mean fluorescence intensity": "78.6 a.u."}
{"Modification": "2'F-ANA at 1 3 4 6 9 10 13", "mean fluorescence intensity": "56.4 a.u."}
{"Modification": "2'F-ANA at 2 3 4 9 10 11 12 14 15", "mean fluorescence intensity": "182 a.u."}
{"Modification": "2'F-ANA at 1 4 5 7 11 13 14 15", "mean fluorescence intensity": "43.6 a.u."}
{"Modification": "2'F-ANA at 2 3 5 9 10 11 12 14 15", "mean fluorescence intensity": "70.2 a.u."}
{"Modification": "2'F-ANA at 2 3 4 5 8 10 14", "mean fluorescence intensity": "46.5 a.u."}
{"data": "Set 4", "SMILES": "CN(C)CCCn1cc(C2=C(c3c[nH]c4ccccc34)C(=O)NC2=O)c2ccccc21", "read-out": "enzyme activity", "mode": "inhibitor", "tested at": "0.5 µM", "baseline": "control"}
{"target": "Rho-associated protein kinase 1 (ROCK1, Homo sapiens, UniProt Q13464)", "remaining activity [%]": 92.3}
{"target": "RAC-beta serine/threonine-protein kinase (AKT2, Homo sapiens, UniProt P31751)", "remaining activity [%]": 88.7}
{"target": "Vascular endothelial growth factor receptor 2 (KDR, Homo sapiens, UniProt P35968)", "remaining activity [%]": 65.5}
{"target": "Calcium/calmodulin-dependent protein kinase type IV (CAMK4, Homo sapiens, UniProt Q16566)", "remaining activity [%]": 89.5}
{"target": "cGMP-dependent protein kinase 2 (PRKG2, Homo sapiens, UniProt Q13237)", "remaining activity [%]": 38.7}
{"target": "Serine/threonine-protein kinase MRCK beta (CDC42BPB, Homo sapiens, UniProt Q9Y5S2)", "remaining activity [%]": 90.8}
{"target": "Discoidin domain-containing receptor 2 (DDR2, Homo sapiens, UniProt Q16832)", "remaining activity [%]": 111}
{"target": "Serine/threonine-protein kinase MARK2 (MARK2, Homo sapiens, UniProt Q7KZI7)", "remaining activity [%]": 71.7}
{"target": "Dual specificity protein kinase CLK4 (CLK4, Homo sapiens, UniProt Q9HAZ1)", "remaining activity [%]": 44.8}
{"target": "Hepatocyte growth factor receptor (MET, Homo sapiens, UniProt P08581)", "remaining activity [%]": 102}
{"target": "Cyclin-dependent kinase 9, with cyclin K (CDK9, Homo sapiens, UniProt P50750)", "remaining activity [%]": 60.3}
{"target": "G protein-coupled receptor kinase 4 (GRK4, Homo sapiens, UniProt P32298)", "remaining activity [%]": 84.5}
{"target": "Dual specificity protein kinase CLK3 (CLK3, Homo sapiens, UniProt P49761)", "remaining activity [%]": 94.3}
{"note": "A few entries again (set 1):"}
{"target": "Cyclin-dependent kinase 13 (CDK13, Homo sapiens, UniProt Q14004)", "remaining binding [%]": 79}
{"target": "Activin receptor type-2A (ACVR2A, Homo sapiens, UniProt P27037)", "remaining binding [%]": 100}
{"target": "Proto-oncogene tyrosine-protein kinase receptor Ret (RET, Homo sapiens, UniProt P07949, V804L)", "remaining binding [%]": 100}
{"target": "Casein kinase I isoform gamma-2 (CSNK1G2, Homo sapiens, UniProt P78368)", "remaining binding [%]": 94}
{"target": "Ephrin type-A receptor 3 (EPHA3, Homo sapiens, UniProt P29320)", "remaining binding [%]": 100}
{"target": "Serine/threonine-protein kinase pim-3 (PIM3, Homo sapiens, UniProt Q86V86)", "remaining binding [%]": 91}
